# Published values of several laboratories.
# Protocols differ between the studies behind these lines. Several values in a cell are separate wells, animals, samples, runs or records.
# JAK2: Tyrosine-protein kinase JAK2 (JAK2, Homo sapiens, UniProt O60674)
Compound,target,test,conditions,inhibition
C=CC(=O)Nc1cccc(-c2cnc3[nH]cc(C(=O)NC(C)(C)C)c3n2)c1,JAK2,kinase activity,0.1 µM,97%
Cc1cnc2nc1Nc1cccc(c1)COC/C=C/COCc1cc(ccc1OCCN1CCOCC1)N2,JAK2,"inhibitor, Z'-LYTE kinase",62.5 nM,99.5% and 98.1% and 98.8%
Cc1nc2c(F)cc(-c3nc(Nc4ccc(CNC(=O)CCCCCCC(=O)NO)cc4)ncc3F)cc2n1C(C)C,JAK2,"enzyme activity, inhibitor",1 µM,100%
C[C@H]1CN(C(=O)c2cn(-c3ccnc(N)n3)c3cc(C#CC4(O)CCCCC4)ccc23)CCN1,JAK2,"enzyme activity, inhibitor, FRET",1 µM,3%
CN1CCN(Cc2ccc(-c3ccc(CO[C@H]4CCC[C@@H]4NC(=O)c4cc(-c5cnn(C)c5)cnc4N)cc3)cc2)CC1,JAK2,"enzyme activity, inhibitor",0.1 µM,-7%
Cc1cccc(O[C@H]2CCC[C@@H](C(C)CNCc3ccncc3)C2)c1 (relative stereo),JAK2,"kinase activity, kinome panel screening",10 µM,-11%
C=CC(=O)N1Cc2nc(-c3cc(-c4cc(Cl)cnc4Cl)c(F)cc3F)n(-c3ccncn3)c2C1,"Tyrosine-protein kinase JAK2, JH1 (JAK2, Homo sapiens, UniProt O60674)","cell-free assay, inhibitor",1 µM,-2.9%
Cc1[nH]nc2c1N=C(c1ccccc1Cl)c1cnc(N3CCOCC3)cc1N2,JAK2,"enzyme activity, inhibitor",0.5 µM,98.6%
Cc1cnc2nc1Nc1cc(F)cc(c1)COC/C=C/COCc1cc(ccc1OCCN1CCCC1)N2,JAK2,"inhibitor, Z'-LYTE kinase",37.04 nM,78.5% and 76.1% and 81.8%
NC(=O)[C@@H](O)C[C@H]1CCc2sc3ncnc(O[C@H]4CC[C@H](N5CCOCC5)CC4)c3c21,JAK2,"enzyme activity, inhibitor",10 µM,1%
Cc1cnc2nc1Nc1cccc(c1)COCCCCOCc1cc(ccc1OCCN1CCCC1)N2,JAK2,"inhibitor, Z'-LYTE kinase",3333.33 nM,93.3% and 91.6% and 92%
CCn1cc(C(=O)O)c(=O)c2c(N)c(F)c(NC3CCCCC3)cc21,"Tyrosine-protein kinase JAK2, JH1-JH2 domains (JAK2, Homo sapiens, UniProt O60674)",kinase activity,"0.1 µM, together with: ATP at Km",6.3%

# Repeated from above:
Compound,target,test,conditions,inhibition
NC(=O)[C@@H](O)C[C@H]1CCc2sc3ncnc(O[C@H]4CC[C@H](N5CCOCC5)CC4)c3c21,JAK2,"enzyme activity, inhibitor",10 µM,1%
CN1CCN(Cc2ccc(-c3ccc(CO[C@H]4CCC[C@@H]4NC(=O)c4cc(-c5cnn(C)c5)cnc4N)cc3)cc2)CC1,JAK2,"enzyme activity, inhibitor",0.1 µM,-7%
